{"data": "Experimental data pooled from the literature", "note": "Numbered parts are unrelated; each lists some results of a single study.", "chain of UniProt P00519 (whole entry, unmodified, looked up)": "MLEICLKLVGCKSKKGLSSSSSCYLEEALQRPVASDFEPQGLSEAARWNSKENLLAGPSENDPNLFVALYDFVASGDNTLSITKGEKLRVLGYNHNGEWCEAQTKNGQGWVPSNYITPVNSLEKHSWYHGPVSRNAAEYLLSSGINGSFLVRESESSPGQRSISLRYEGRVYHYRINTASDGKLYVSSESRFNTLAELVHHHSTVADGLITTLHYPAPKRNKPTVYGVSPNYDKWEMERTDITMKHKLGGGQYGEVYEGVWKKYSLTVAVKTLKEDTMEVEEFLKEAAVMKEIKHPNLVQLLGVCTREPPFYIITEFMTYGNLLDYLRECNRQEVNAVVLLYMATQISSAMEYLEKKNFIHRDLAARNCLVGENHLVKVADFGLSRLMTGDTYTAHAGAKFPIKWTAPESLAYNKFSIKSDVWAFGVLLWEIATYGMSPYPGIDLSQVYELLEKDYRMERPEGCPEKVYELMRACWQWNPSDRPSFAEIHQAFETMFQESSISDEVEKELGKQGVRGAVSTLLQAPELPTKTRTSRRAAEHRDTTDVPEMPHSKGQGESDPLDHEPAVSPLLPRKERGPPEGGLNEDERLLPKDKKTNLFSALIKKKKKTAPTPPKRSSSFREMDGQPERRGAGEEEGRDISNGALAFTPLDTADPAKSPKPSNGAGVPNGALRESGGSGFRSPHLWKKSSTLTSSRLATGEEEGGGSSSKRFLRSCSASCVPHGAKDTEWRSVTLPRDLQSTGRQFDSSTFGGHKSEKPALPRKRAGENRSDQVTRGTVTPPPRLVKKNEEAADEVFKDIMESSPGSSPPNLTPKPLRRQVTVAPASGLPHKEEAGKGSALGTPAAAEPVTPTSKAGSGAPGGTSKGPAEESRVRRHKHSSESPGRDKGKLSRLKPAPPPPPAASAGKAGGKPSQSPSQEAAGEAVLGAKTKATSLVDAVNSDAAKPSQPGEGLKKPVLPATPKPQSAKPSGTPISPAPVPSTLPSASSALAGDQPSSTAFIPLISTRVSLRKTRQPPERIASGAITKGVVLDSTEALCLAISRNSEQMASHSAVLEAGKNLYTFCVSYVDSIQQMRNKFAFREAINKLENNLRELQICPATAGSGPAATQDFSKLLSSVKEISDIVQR", "chain of UniProt O96013 (whole entry, looked up)": "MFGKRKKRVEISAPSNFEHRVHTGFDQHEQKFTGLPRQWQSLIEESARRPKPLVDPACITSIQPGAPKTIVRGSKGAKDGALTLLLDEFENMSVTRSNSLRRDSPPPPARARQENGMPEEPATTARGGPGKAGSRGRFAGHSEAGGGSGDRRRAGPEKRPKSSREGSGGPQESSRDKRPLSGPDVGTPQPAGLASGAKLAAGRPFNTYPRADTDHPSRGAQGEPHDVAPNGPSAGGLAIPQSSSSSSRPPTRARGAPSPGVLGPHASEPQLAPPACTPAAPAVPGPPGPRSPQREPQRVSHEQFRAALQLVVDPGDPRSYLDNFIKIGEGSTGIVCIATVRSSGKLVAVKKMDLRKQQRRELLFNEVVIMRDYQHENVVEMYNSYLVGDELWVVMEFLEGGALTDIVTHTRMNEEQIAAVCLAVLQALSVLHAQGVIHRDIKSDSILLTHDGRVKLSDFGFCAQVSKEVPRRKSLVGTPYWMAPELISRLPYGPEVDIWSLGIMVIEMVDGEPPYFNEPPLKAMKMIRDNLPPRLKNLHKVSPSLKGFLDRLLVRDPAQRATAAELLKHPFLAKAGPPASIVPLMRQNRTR", "chain of UniProt Q15139 (whole entry, looked up)": "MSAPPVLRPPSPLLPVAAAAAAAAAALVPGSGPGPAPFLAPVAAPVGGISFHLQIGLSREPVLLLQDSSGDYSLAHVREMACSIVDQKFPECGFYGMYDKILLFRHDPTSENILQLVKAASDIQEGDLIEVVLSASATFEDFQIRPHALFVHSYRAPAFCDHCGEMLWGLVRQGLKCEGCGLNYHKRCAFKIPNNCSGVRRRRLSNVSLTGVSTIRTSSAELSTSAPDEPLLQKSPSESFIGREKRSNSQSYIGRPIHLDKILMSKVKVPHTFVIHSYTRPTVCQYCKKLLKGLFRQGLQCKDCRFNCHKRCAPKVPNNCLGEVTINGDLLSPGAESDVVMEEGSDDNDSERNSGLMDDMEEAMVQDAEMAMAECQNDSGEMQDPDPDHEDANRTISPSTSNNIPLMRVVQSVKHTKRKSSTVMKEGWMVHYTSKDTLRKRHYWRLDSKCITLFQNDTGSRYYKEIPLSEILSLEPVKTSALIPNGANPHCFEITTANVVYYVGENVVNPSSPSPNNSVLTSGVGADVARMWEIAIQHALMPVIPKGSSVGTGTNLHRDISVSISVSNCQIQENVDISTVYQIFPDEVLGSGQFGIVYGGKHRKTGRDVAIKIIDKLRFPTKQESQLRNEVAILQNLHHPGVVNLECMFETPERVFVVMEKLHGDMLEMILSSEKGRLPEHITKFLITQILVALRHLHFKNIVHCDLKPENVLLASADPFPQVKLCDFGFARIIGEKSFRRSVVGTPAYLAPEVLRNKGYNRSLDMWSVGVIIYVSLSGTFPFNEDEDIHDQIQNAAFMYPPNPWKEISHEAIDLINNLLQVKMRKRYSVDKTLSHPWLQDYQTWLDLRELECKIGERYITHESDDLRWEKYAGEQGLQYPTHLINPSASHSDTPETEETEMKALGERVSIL", "chain of UniProt P0C264 (whole entry, looked up)": "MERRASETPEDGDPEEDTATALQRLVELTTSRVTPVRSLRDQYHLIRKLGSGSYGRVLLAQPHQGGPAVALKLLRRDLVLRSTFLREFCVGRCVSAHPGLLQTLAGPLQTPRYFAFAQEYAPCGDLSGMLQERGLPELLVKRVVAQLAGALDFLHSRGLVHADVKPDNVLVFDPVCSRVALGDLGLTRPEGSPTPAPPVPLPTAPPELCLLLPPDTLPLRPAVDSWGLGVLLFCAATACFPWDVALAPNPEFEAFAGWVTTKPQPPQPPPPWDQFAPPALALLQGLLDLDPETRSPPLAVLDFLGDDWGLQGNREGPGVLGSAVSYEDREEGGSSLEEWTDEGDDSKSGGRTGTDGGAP", "chain of UniProt O95819 (whole entry, looked up)": "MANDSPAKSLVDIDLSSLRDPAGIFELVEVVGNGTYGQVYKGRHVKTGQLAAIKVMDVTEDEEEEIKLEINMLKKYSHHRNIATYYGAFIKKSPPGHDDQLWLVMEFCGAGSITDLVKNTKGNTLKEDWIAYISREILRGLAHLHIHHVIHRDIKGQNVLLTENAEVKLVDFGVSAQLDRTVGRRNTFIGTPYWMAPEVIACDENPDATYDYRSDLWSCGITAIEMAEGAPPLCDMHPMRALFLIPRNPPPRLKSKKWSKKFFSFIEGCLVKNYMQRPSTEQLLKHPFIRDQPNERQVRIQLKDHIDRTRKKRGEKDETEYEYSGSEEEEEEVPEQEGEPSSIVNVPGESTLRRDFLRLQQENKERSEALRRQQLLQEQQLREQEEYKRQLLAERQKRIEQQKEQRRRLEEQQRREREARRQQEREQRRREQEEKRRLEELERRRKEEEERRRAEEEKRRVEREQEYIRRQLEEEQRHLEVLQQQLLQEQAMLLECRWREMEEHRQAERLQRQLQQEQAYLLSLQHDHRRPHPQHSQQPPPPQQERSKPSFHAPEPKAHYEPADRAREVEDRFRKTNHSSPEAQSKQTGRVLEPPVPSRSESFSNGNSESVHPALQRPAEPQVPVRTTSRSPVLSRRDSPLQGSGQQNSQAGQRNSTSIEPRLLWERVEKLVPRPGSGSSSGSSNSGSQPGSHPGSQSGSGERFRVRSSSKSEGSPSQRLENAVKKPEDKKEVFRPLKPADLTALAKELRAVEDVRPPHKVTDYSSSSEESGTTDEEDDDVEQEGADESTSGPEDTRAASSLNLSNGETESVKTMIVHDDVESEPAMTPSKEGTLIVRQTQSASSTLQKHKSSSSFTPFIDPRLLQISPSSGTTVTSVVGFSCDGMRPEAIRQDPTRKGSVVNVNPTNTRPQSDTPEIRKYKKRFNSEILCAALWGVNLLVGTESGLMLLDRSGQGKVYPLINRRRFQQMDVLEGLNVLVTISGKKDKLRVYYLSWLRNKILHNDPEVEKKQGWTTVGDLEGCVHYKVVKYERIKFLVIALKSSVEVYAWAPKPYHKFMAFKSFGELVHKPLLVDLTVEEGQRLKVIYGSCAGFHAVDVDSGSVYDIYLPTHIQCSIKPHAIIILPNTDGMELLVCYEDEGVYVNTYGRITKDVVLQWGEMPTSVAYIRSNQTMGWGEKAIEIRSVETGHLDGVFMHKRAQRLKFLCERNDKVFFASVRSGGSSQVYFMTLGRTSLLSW", "chain of UniProt Q00534 (whole entry, looked up)": "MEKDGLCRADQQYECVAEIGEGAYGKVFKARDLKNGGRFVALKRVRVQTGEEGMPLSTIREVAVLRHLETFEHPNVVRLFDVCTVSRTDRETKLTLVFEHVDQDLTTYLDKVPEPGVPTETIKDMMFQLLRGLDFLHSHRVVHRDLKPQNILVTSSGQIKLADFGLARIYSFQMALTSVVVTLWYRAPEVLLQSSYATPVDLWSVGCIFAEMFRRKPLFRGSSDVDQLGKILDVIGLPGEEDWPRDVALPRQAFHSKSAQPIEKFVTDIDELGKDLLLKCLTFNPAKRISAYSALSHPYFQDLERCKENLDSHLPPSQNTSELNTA", "chain of UniProt Q9UEE5 (whole entry, looked up)": "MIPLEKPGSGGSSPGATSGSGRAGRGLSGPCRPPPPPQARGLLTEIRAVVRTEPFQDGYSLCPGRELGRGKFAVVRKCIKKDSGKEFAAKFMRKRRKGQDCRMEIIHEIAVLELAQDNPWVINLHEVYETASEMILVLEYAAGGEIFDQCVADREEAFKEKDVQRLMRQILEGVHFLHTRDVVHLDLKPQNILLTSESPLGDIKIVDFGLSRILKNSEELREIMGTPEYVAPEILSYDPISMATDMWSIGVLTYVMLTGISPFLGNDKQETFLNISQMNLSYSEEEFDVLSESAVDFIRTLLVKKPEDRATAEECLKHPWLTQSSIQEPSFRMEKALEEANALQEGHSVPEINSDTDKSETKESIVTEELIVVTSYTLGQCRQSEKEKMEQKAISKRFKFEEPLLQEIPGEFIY"}
{"data": "Set 1", "SMILES": "COc1ccc2c(c1)O[C@H](c1ccc(OC)c(OC)c1)C[C@@H]2NC(=O)C1(c2ccc3c(c2)OC(F)(F)O3)CC1", "tested at": "1 µM"}
{"target": "FLT3 (Homo sapiens, UniProt P36888, D835Y)", "effect on": "cell-free assay", "method": "competition with immobilised ligand", "remaining binding [%]": 100}
{"target": "BTK (Homo sapiens, UniProt Q06187)", "effect on": "cell-free assay", "method": "competition with immobilised ligand", "remaining binding [%]": 92}
{"target": "CDK19 (Homo sapiens, UniProt Q9BWU1)", "method": "competition binding", "remaining binding [%]": 94}
{"target": "CDKL3 (Homo sapiens, UniProt Q8IVW4)", "effect on": "cell-free assay", "method": "competition with immobilised ligand", "remaining binding [%]": 97}
{"target": "FRK (Homo sapiens, UniProt P42685)", "effect on": "cell-free assay", "method": "competition with immobilised ligand", "remaining binding [%]": 100}
{"target": "MAP2K7 (Homo sapiens, UniProt O14733)", "effect on": "cell-free assay", "method": "competition with immobilised ligand", "remaining binding [%]": 100}
{"target": "LCK (Homo sapiens, UniProt P06239)", "effect on": "cell-free assay", "method": "competition with immobilised ligand", "remaining binding [%]": 100}
{"target": "EPHA5 (Homo sapiens, UniProt P54756)", "effect on": "cell-free assay", "method": "competition with immobilised ligand", "remaining binding [%]": 100}
{"target": "RET (Homo sapiens, UniProt P07949, M918T)", "effect on": "cell-free assay", "method": "competition with immobilised ligand", "remaining binding [%]": 99}
{"target": "MAPKAPK5 (Homo sapiens, UniProt Q8IW41)", "effect on": "cell-free assay", "method": "competition with immobilised ligand", "remaining binding [%]": 100}
{"target": "MATK (Homo sapiens, UniProt P42679)", "effect on": "cell-free assay", "method": "competition with immobilised ligand", "remaining binding [%]": 100}
{"target": "PDGFRB (Homo sapiens, UniProt P09619)", "effect on": "cell-free assay", "method": "competition with immobilised ligand", "remaining binding [%]": 100}
{"target": "PAK4 (Homo sapiens, UniProt O96013)", "effect on": "cell-free assay", "method": "competition with immobilised ligand", "remaining binding [%]": 100}
{"target": "WNK2 (Homo sapiens, UniProt Q9Y3S1)", "effect on": "cell-free assay", "method": "competition with immobilised ligand", "remaining binding [%]": 85}
{"target": "COQ8A (Homo sapiens, UniProt Q8NI60)", "effect on": "cell-free assay", "method": "competition with immobilised ligand", "remaining binding [%]": 100}
{"target": "Tyrosine-protein kinase ABL1, phosphorylated (ABL1, Homo sapiens, UniProt P00519, F317I)", "effect on": "cell-free assay", "method": "competition with immobilised ligand", "remaining binding [%]": 100}
{"data": "Set 2", "cell line": "A-375", "tested at": "100 µM", "time": "18 h"}
{"SMILES": "COC(=O)[C@H]1[C@H]2C[C@@H]3c4[nH]c5cc(OC)ccc5c4CCN3C[C@H]2C[C@@H](OC(=O)c2cc(OC)c(OC)c(OC)c2)[C@@H]1OC", "viability": "61.8%"}
{"SMILES": "O=S(=O)(O)CCSSCCS(=O)(=O)O", "viability": "92.5%"}
{"SMILES": "Cn1c(=O)c2c(ncn2CC(=O)O)n(C)c1=O", "viability": "106%"}
{"SMILES": "N[C@@H](Cc1c[nH]c2ccccc12)C(=O)O", "viability": "72.2%"}
{"SMILES": "Cc1cncc(CN2CCC(=C3c4ccc(Cl)cc4CCc4cccnc43)CC2)c1", "viability": "8.83%"}
{"SMILES": "CC(=O)OCC(=O)[C@@]1(O)CC[C@H]2[C@@H]3CCC4=CC(=O)CC[C@]4(C)[C@H]3[C@@H](O)C[C@@]21C", "viability": "92.1%"}
{"SMILES": "OCC(O)CN1CCN(c2ccccc2)CC1 (stereo not shown)", "viability": "75.3%"}
{"SMILES": "CC(=O)SCC(Cc1ccccc1)C(=O)NCC(=O)OCc1ccccc1 (stereo not shown)", "viability": "110%"}
{"SMILES": "COc1ccc([C@@H]2OC[C@H]3[C@@H]2CO[C@@H]3c2ccc(O[C@@H]3O[C@H](CO)[C@@H](O)[C@H](O)[C@H]3O)c(OC)c2)cc1OC", "viability": "103%"}
{"SMILES": "O=c1[nH]cc(F)c(=O)[nH]1", "viability": "91%"}
{"SMILES": "O=C(O)c1ccccc1C(=O)Nc1ccc(S(=O)(=O)Nc2nccs2)cc1", "viability": "86%"}
{"SMILES": "CCCCCCCC(=O)N[C@H](CN1CCCC1)[C@H](O)c1ccc2c(c1)OCCO2", "viability": "40.1%"}
{"SMILES": "N#Cc1ccc2[nH]cc(CCCCN3CCN(c4ccc5oc(C(N)=O)cc5c4)CC3)c2c1", "viability": "11.6%"}
{"data": "Set 3", "SMILES": "NC(=O)c1ccc(N(C(N)=O)c2c(F)cccc2F)nc1-c1ccc(F)cc1F", "effect on": "enzyme activity", "action": "inhibitor", "tested at": "0.5 µM", "baseline": "control"}
{"target": "EPHB4 (Homo sapiens, UniProt P54760)", "remaining activity": "83.9%"}
{"target": "CAMK2B (Homo sapiens, UniProt Q13554)", "remaining activity": "104%"}
{"target": "RPS6KA5 (Homo sapiens, UniProt O75582)", "remaining activity": "92.8%"}
{"target": "EPHA4 (Homo sapiens, UniProt P54764)", "remaining activity": "105%"}
{"target": "STK17A (Homo sapiens, UniProt Q9UEE5)", "remaining activity": "100%"}
{"target": "Cyclin-dependent kinase 4, with cyclin D3 (CDK4, Homo sapiens, UniProt P11802)", "remaining activity": "98.4%"}
{"target": "SRMS (Homo sapiens, UniProt Q9H3Y6)", "remaining activity": "92.9%"}
{"target": "EPHB1 (Homo sapiens, UniProt P54762)", "remaining activity": "100%"}
{"target": "PRKACG (Homo sapiens, UniProt P22612)", "remaining activity": "109%"}
{"target": "WNK3 (Homo sapiens, UniProt Q9BYP7)", "remaining activity": "96.6%"}
{"target": "Cyclin-dependent kinase 1, with cyclin B (CDK1, Homo sapiens, UniProt P06493)", "remaining activity": "95.7%"}
{"target": "BLK (Homo sapiens, UniProt P51451)", "remaining activity": "100%"}
{"target": "TSSK2 (Homo sapiens, UniProt Q96PF2)", "remaining activity": "88.6%"}
{"target": "HIPK2 (Homo sapiens, UniProt Q9H2X6)", "remaining activity": "100%"}
{"target": "MAP4K4 (Homo sapiens, UniProt O95819)", "remaining activity": "108%"}
{"target": "Cyclin-dependent kinase 6, with cyclin D3 (CDK6, Homo sapiens, UniProt Q00534)", "remaining activity": "119%"}
{"target": "PDPK1 (Homo sapiens, UniProt O15530)", "remaining activity": "87.4%"}
{"target": "PHKG1 (Homo sapiens, UniProt Q16816)", "remaining activity": "92%"}
{"target": "DYRK3 (Homo sapiens, UniProt O43781)", "remaining activity": "105%"}
{"target": "AXL (Homo sapiens, UniProt P30530)", "remaining activity": "101%"}
{"target": "ABL1 (Homo sapiens, UniProt P00519)", "remaining activity": "99.7%"}
{"target": "HIPK4 (Homo sapiens, UniProt Q8NE63)", "remaining activity": "90.5%"}
{"target": "RPS6KA6 (Homo sapiens, UniProt Q9UK32)", "remaining activity": "101%"}
{"target": "STK16 (Homo sapiens, UniProt O75716)", "remaining activity": "100%"}
{"target": "MAPKAPK3 (Homo sapiens, UniProt Q16644)", "remaining activity": "99.1%"}
{"data": "Set 4", "Structure (SMILES)": "COc1ccc2[nH]c3c4[nH]c5ccc(OC)cc5c4c4c(c3c2c1)C(=O)NC4=O", "effect on": "binding", "tested at": "1 µM"}
{"target": "STK39 (Homo sapiens, UniProt Q9UEW8)", "remaining binding": "100%"}
{"target": "SBK3 (Homo sapiens, UniProt P0C264)", "remaining binding": "100%"}
{"target": "FLT3 (Homo sapiens, UniProt P36888, D835H)", "remaining binding": "12%"}
{"target": "PRKCQ (Homo sapiens, UniProt Q04759)", "remaining binding": "44%"}
{"target": "ALK (Homo sapiens, UniProt Q9UM73, C1156Y)", "remaining binding": "25%"}
{"target": "PIK3CA (Homo sapiens, UniProt P42336, C420R)", "remaining binding": "90%"}
{"target": "TTK (Homo sapiens, UniProt P33981)", "method": "competition with immobilised ligand", "remaining binding": "50%"}
{"target": "DCLK2 (Homo sapiens, UniProt Q8N568)", "remaining binding": "90%"}
{"target": "SRPK1 (Homo sapiens, UniProt Q96SB4)", "remaining binding": "86%"}
{"target": "PRKD1 (Homo sapiens, UniProt Q15139)", "remaining binding": "68%"}
{"note": "Repeated from above (set 3):"}
{"target": "PRKACG (Homo sapiens, UniProt P22612)", "remaining activity": "109%"}
{"target": "WNK3 (Homo sapiens, UniProt Q9BYP7)", "remaining activity": "96.6%"}
{"target": "Cyclin-dependent kinase 1, with cyclin B (CDK1, Homo sapiens, UniProt P06493)", "remaining activity": "95.7%"}
{"target": "BLK (Homo sapiens, UniProt P51451)", "remaining activity": "100%"}
{"target": "TSSK2 (Homo sapiens, UniProt Q96PF2)", "remaining activity": "88.6%"}
{"target": "HIPK2 (Homo sapiens, UniProt Q9H2X6)", "remaining activity": "100%"}
{"target": "MAP4K4 (Homo sapiens, UniProt O95819)", "remaining activity": "108%"}
{"target": "Cyclin-dependent kinase 6, with cyclin D3 (CDK6, Homo sapiens, UniProt Q00534)", "remaining activity": "119%"}
